# Results of several laboratories.
# Protocols differ between the studies behind these lines. “And” joins repeats or separate records; there may be more than shown. ± gives the spread as reported.
# CYP2E1: Cytochrome P450 2E1 (CYP2E1, Homo sapiens, UniProt P05181)
# Sequence of UniProt P05181 (whole entry, looked up): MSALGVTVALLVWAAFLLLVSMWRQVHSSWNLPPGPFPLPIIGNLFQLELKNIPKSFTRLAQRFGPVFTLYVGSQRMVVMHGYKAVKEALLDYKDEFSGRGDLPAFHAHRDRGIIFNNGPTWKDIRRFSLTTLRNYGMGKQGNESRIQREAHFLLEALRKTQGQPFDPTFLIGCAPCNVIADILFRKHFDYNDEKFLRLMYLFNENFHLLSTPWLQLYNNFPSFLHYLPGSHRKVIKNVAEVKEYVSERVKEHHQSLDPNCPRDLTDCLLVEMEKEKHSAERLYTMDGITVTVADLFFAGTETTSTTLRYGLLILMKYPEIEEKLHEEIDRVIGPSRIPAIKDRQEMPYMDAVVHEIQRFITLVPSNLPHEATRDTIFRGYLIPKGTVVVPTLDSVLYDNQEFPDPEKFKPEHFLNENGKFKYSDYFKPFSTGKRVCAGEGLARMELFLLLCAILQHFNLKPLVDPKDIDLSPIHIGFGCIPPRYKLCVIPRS
# Sequence of UniProt Q9NWZ3 (whole entry, looked up): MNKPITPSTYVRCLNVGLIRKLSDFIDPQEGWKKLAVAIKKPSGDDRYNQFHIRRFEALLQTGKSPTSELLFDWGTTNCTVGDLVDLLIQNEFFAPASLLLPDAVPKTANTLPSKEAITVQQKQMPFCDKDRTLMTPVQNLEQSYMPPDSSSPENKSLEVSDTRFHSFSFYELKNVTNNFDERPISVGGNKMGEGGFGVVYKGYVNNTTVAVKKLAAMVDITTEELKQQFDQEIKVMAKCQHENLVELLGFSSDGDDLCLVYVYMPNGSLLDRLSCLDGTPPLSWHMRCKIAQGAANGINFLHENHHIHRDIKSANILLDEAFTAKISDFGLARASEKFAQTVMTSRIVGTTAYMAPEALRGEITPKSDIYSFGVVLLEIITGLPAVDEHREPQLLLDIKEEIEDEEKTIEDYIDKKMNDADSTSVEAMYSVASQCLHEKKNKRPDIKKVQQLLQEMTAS
# Sequence of UniProt Q9UHD2 (whole entry, looked up): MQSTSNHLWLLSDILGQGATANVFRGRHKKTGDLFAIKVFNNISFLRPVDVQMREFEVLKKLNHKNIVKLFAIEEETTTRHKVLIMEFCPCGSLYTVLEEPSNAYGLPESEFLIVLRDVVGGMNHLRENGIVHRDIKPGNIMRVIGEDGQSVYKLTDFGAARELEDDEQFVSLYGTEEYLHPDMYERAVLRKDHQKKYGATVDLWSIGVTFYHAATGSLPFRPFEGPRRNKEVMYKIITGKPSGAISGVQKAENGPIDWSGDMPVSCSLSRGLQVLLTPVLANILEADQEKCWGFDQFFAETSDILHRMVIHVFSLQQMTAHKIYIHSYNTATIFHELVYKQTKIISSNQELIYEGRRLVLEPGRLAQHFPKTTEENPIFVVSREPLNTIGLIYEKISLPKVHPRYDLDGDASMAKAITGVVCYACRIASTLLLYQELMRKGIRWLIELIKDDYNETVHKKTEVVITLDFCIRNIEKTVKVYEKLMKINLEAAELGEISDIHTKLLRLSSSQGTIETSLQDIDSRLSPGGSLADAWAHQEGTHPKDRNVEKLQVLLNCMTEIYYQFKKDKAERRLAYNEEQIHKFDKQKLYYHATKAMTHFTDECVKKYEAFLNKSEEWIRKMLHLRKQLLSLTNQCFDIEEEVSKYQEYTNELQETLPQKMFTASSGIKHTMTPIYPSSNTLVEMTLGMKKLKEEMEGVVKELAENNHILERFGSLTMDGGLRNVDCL
# Sequence of UniProt Q96S44 (whole entry, looked up): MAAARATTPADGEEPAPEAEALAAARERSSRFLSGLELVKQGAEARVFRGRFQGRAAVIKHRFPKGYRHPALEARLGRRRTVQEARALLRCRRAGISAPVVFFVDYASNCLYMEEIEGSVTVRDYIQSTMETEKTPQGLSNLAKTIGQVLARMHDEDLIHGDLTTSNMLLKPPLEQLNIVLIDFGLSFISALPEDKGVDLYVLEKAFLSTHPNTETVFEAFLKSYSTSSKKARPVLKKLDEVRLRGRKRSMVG
# Sequence of UniProt Q9UEE5 (whole entry, looked up): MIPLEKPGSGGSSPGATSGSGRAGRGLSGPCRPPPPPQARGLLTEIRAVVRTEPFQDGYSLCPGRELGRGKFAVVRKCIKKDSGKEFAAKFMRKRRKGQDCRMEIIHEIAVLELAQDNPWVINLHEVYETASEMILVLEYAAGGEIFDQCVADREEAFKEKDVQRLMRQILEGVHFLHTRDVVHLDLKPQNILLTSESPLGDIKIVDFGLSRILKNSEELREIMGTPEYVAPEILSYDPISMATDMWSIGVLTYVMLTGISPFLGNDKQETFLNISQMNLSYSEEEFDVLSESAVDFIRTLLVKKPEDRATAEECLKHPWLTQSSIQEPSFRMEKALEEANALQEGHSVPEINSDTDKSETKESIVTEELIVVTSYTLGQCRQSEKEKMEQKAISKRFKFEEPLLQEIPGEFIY
SMILES,target or system,test,test system,conditions,how to read,measurement,result
O=C1CC[C@H]2[C@H]3Cc4ccc(O)c5c4[C@@]2(CCN3CCc2ccccc2)[C@H]1O5,,,,,,log k amino protonation,9.96
Cc1cc(C(=O)Nc2nc3cccc(C)c3n2[C@H]2CCCCN(C(=O)/C=C/CN(C)C)C2)ccn1,Trypanosoma brucei,,"STIB795, mouse acute HAT model","oral, 25 mg/kg once daily for 4 days, day 0",reference: mice,survival,100%
COc1ccccc1-c1n[nH]c2nc(N[C@H]3CC[C@H](NS(=O)(=O)CC(C)C)CC3)ncc12,,"bead binding, competition bead pull-down, measured: LINJ.30.2340",Leishmania donovani extract,10 µM,reference: vehicle,relative abundance,0.88
CS(C)(=O)=Nc1ccc(-c2ccc(-c3nc4cc(O[C@@H]5CO[C@H]6[C@@H]5OC[C@H]6O)[nH]c4cc3F)cc2)cc1,"Serine/threonine-protein kinase TBK1 (TBK1, Homo sapiens, UniProt Q9UHD2)","enzyme activity, inhibitor",,10 µM,,inhibition,2%
O=C1CC[C@@]2(O)[C@H]3Cc4ccc(O)c5c4[C@@]2(CCN3CC2CCC2)[C@H]1O5,,,,,,log k amino protonation,9.55
CN(C)[C@H]1C[C@@]23CC[C@@]4(O2)C(=CC[C@]2(C)[C@@H](c5ccc6ccncc6c5)CC[C@H]24)C=C3[C@@H](O)[C@@H]1O,"EKC/KEOPS complex subunit TP53RK (TP53RK, Homo sapiens, UniProt Q96S44)","ATP probe labelling, inhibitor, KiNativ profiling",,0.1 µM,,inhibition,10.4%
CN1CC[C@]23c4c5ccc(O)c4O[C@H]2[C@H](O)CC[C@@]3(O)[C@H]1C5,,,,,,log k amino protonation,10.2
Cc1nc2cccc(OCC(C)(C)C(=O)NC(C)C)c2c(N)c1C(=O)[O-].[Na+],Salmonella typhimurium,,TA100,"2.0 mg per plate, with S9, plate incorporation",,revertant colonies per plate,111 ± 5
CC(C)[C@H]1NC(=O)C[C@H]2/C=C/CCSSC[C@@H](NC1=O)C(=O)N[C@H](Cc1cccc3ccccc13)C(=O)NCC(=O)O2,"Interleukin-1 receptor-associated kinase 4 (IRAK4, Homo sapiens, UniProt Q9NWZ3)","enzyme activity, inhibitor",,10 µM,,inhibition,5.4%
C[C@H]1[C@@H](OCc2cn(-c3cc4ccc(O)cc4oc3=O)nn2)O[C@@H]2O[C@@]3(C)CC[C@H]4[C@H](C)CC[C@@H]1[C@@]24OO3,Plasmodium berghei,"flow cytometry, measured: compound uptake in parasites",infected mouse red blood cells,"3 µM, 1 h, with: dihydroartemisinin added 30 min before",,uptake inhibition,58.8%
CN1CC[C@]23c4c5ccc(O)c4O[C@H]2[C@H](O)C=C[C@@]3(O)[C@H]1C5,,,,phenolate site,,log k protonation constant,9.3
CC(C)(C)C(=O)OCOP(=O)(OCOC(=O)C(C)(C)C)C1CCCN(O)C1=O (stereo not shown),Hs-578T,,,,,log TGI,-5.08 log M
Cc1sc2c(c1C)C(c1ccc(Cl)cc1)=N[C@@H](CC(=O)OC(C)(C)C)c1nnc(C)n1-2,,,"CD1 mouse, male","intravenous, 5 mg/kg",,AUC(0-inf),2130 ng·h/mL
O=C1NC2(CC2)COc2ncc(F)cc2[C@H]2COCCN2c2ccn3ncc1c3n2,,,"Sprague-Dawley rat, female, brain","oral, 20 mg/kg/day, 4 weeks, end of treatment",,organ-to-body weight ratio,0.609 ± 0.067%
O=C1NC(=O)c2c1c1cc(F)c[n+]3c1c1c2c2cc(O)ccc2[n]1[Ru-4]312([N]=C=S)[S+]3CC[S+]1CC[S+]2CC3 (stereo not shown),"Serine/threonine-protein kinase 17A (STK17A, Homo sapiens, UniProt Q9UEE5)",enzyme activity,,"100 nM, human enzyme, with: 10 µM ATP",reference: untreated,remaining activity,59%
Oc1ccc2c3c1OC1C(O)C=CC4C(C2)N(CC2CCC2)CCC341 (stereo not shown),,,,phenolate protonated,,log k amino protonation,8.75
Nc1c2c(nc3sc4c(c13)CCCCC4)CCCC2,HEK-293T,cytotoxicity,,3 days,,IC50,> 10 µM
C[C@@H](c1ccc2nccn2c1)n1nnc2ncc(-c3cn[nH]c3)nc21,CYP2E1,"enzyme activity, inhibitor","human, liver microsomes",,,IC50,> 50 µM
O=C1CC[C@@]2(O)[C@H]3Cc4ccc(O)c5c4[C@@]2(CCN3CCc2ccccc2)[C@H]1O5,,,,,,log k amino protonation,9.84
CC(=O)NCCCC[C@@H]1NC(=O)[C@H](Cc2c[nH]c3c(C)cccc23)NC(=O)[C@H]([C@@H](C)O)NC(=O)[C@H](CC(N)=O)NC(=O)[C@@H](NC(C)=O)C(C)(C)SSC(C)(C)[C@@H](C(=O)N[C@@H](Cc2ccc(OCCN)cc2)C(=O)N[C@@H](Cc2ccc3ccccc3c2)C(=O)NC2(C(=O)N[C@@H](CCC(=O)O)C(=O)N[C@@H](CC(N)=O)C(=O)N[C@@H](Cc3cccnc3)C(=O)N(C)CC(N)=O)CCOCC2)NC1=O,human alpha-1-acid glycoprotein 0.07%,equilibrium dialysis,,0.1 µM,,fraction unbound,89.4 ± 1.9%
Cc1ccc(NS(=O)(=O)c2c(C(=O)N3CCCCCC3)c(C)n(C)c2C)c(Cl)c1,CV-1,,African green monkey cells,"0.015 µM, 60 (unit not given)",,viability,100% and 90.8%
CC[C@H](C)[C@H](NC(=O)[C@H](CCCCN)NC(=O)CNC(=O)[C@H](CC(C)C)NC(=O)[C@H](Cc1ccccc1)NC(=O)[C@H](CCCCN)NC(=O)[C@H](CO)NC(=O)[C@H](Cc1ccccc1)NC(=O)[C@H](Cc1c[nH]c2ccccc12)NC(=O)[C@H](CCC(N)=O)NC(=O)[C@@H](NC(=O)[C@H](Cc1ccccc1)NC(=O)CCCCCNC(=O)CN1CCN(CC(=O)O)CCN(CC(=O)O)CCN(CC(=O)O)CC1)C(C)C)C(=O)N[C@@H](CCC(=O)O)C(=O)N1CCC[C@H]1C(=O)N[C@@H](CC(=O)O)C(=O)N[C@H](C(=O)N[C@@H](CO)C(=O)N[C@@H](CCC(N)=O)C(=O)N[C@H](C(=O)N[C@@H](CCC(N)=O)C(=O)N[C@@H](CC(=O)O)C(=O)N1CCC[C@H]1C(=O)N[C@@H](CC(N)=O)C(=O)N[C@@H](CC(=O)O)C(=O)N[C@@H](CCC(N)=O)C(=O)N[C@@H](Cc1ccc(O)cc1)C(=O)N[C@@H](CCC(=O)O)C(=O)N1CCC[C@H]1C(=O)N[C@@H](Cc1ccccc1)C(=O)O)C(C)C)C(C)C [copper-64 labelled],,,"C57BL/6 mice, male, tumour-free, stomach",1 h,,tissue uptake,3.24 ± 0.7 %ID/g
Cc1cc(-c2ccc3ccccc3c2)nnc1NCCN1CCN(C)CC1,CYP2E1,substrate,recombinant enzyme,1000 nM,,half-life,> 30 min
CC[C@H](C)[C@H](NC(=O)[C@H](CO)NC(=O)[C@H](Cc1ccc(O)cc1)NC(=O)[C@H](Cc1ccc(O)cc1)NC(=O)[C@H](CC(N)=O)NC(=O)CNC(=O)[C@H](CO)NC(=O)[C@H](Cc1ccc(O)cc1)NC(=O)[C@H](CO)NC(=O)[C@H](CO)NC(=O)[C@H](CC(N)=O)NC(=O)COCCOCCNC(=O)CN1CCN(CC(=O)O)CCN(CC(=O)O)CCN(CC(=O)O)CC1)C(=O)N[C@@H](CC(C)C)C(N)=O [copper-64 labelled],,dynamic PET,"KPC mouse, pancreatic cancer model, blood","intravenous, 22.5 min, 49 days after tamoxifen",,tumour uptake,3.12 %ID/mL
COc1ccccc1-c1n[nH]c2nc(NC3CCN(C(=O)Cc4ccc(F)cc4F)CC3)ncc12,,"bead binding, competition bead pull-down, measured: LINJ.26.0290",Leishmania donovani extract,10 µM,reference: vehicle,relative abundance,1.23
CN1Cc2cc(Cl)ccc2-n2c(nnc2C2CCN(c3cccc(F)n3)CC2)C1,,,"Sprague-Dawley rats male, pituitary","intravenous, 0.03 mg/kg, 60 min",,concentration,5.27 ± 1.14 ng/mL
COc1ccc(-n2cc(C(=O)N3C[C@]4(OC(=O)c5ccccc5NC(C)=O)CC[C@H](OC)[C@@]56[C@@H]4C[C@@H]([C@@H]35)[C@@]3(O)C[C@H](OC)[C@H]4C[C@@H]6[C@]3(O)[C@H]4OC)nn2)cc1,,,"Sprague-Dawley rat, plasma","intravenous, 2 mg/kg, 2 h",,concentration,5.98 ng/mL
CC[C@H](C)[C@H](NC(=O)[C@H](CCCCN)NC(=O)[C@H](CCCCN)NC(=O)[C@H](Cc1ccccc1)NC(=O)[C@H](Cc1ccccc1)NC(=O)[C@H](CCCCN)NC(=O)[C@H](CCCCN)NC(=O)[C@H](Cc1ccccc1)NC(=O)[C@H](CCCNC(=N)N)NC(=O)[C@@H](N)CCCCN)C(=O)N[C@@H](CCCCN)C(=O)N[C@@H](CCCCN)C(=O)N[C@@H](CO)C(=O)N[C@H](C(=O)N[C@@H](CCCCN)C(=O)N[C@@H](CCCCN)C(=O)N[C@@H](CCCNC(=N)N)C(=O)N[C@H](C(=O)N[C@@H](CCCCN)C(=O)N[C@@H](CCCCN)C(=O)N[C@@H](CC(C)C)C(=O)N[C@@H](Cc1ccccc1)C(=O)N[C@@H](CCCCN)C(=O)N[C@@H](CCCCN)C(=O)N1CCC[C@H]1C(=O)N[C@@H](CCCNC(=N)N)C(=O)N[C@H](C(=O)N[C@H](C(=O)N1CCC[C@H]1C(=O)N[C@H](C(=O)N[C@@H](CO)C(=O)N[C@H](C(=O)N1CCC[C@H]1C(=O)N[C@@H](Cc1ccccc1)C(=O)O)[C@@H](C)CC)[C@@H](C)CC)[C@@H](C)CC)C(C)C)C(C)C)C(C)C,Escherichia coli,,E24,after heating at 60 °C,,MIC,4 µg/mL

# A few entries again:
SMILES,target or system,test,test system,conditions,how to read,measurement,result
CC[C@H](C)[C@H](NC(=O)[C@H](CCCCN)NC(=O)[C@H](CCCCN)NC(=O)[C@H](Cc1ccccc1)NC(=O)[C@H](Cc1ccccc1)NC(=O)[C@H](CCCCN)NC(=O)[C@H](CCCCN)NC(=O)[C@H](Cc1ccccc1)NC(=O)[C@H](CCCNC(=N)N)NC(=O)[C@@H](N)CCCCN)C(=O)N[C@@H](CCCCN)C(=O)N[C@@H](CCCCN)C(=O)N[C@@H](CO)C(=O)N[C@H](C(=O)N[C@@H](CCCCN)C(=O)N[C@@H](CCCCN)C(=O)N[C@@H](CCCNC(=N)N)C(=O)N[C@H](C(=O)N[C@@H](CCCCN)C(=O)N[C@@H](CCCCN)C(=O)N[C@@H](CC(C)C)C(=O)N[C@@H](Cc1ccccc1)C(=O)N[C@@H](CCCCN)C(=O)N[C@@H](CCCCN)C(=O)N1CCC[C@H]1C(=O)N[C@@H](CCCNC(=N)N)C(=O)N[C@H](C(=O)N[C@H](C(=O)N1CCC[C@H]1C(=O)N[C@H](C(=O)N[C@@H](CO)C(=O)N[C@H](C(=O)N1CCC[C@H]1C(=O)N[C@@H](Cc1ccccc1)C(=O)O)[C@@H](C)CC)[C@@H](C)CC)[C@@H](C)CC)C(C)C)C(C)C)C(C)C,Escherichia coli,,E24,after heating at 60 °C,,MIC,4 µg/mL
Cc1ccc(NS(=O)(=O)c2c(C(=O)N3CCCCCC3)c(C)n(C)c2C)c(Cl)c1,CV-1,,African green monkey cells,"0.015 µM, 60 (unit not given)",,viability,100% and 90.8%
CC[C@H](C)[C@H](NC(=O)[C@H](CO)NC(=O)[C@H](Cc1ccc(O)cc1)NC(=O)[C@H](Cc1ccc(O)cc1)NC(=O)[C@H](CC(N)=O)NC(=O)CNC(=O)[C@H](CO)NC(=O)[C@H](Cc1ccc(O)cc1)NC(=O)[C@H](CO)NC(=O)[C@H](CO)NC(=O)[C@H](CC(N)=O)NC(=O)COCCOCCNC(=O)CN1CCN(CC(=O)O)CCN(CC(=O)O)CCN(CC(=O)O)CC1)C(=O)N[C@@H](CC(C)C)C(N)=O [copper-64 labelled],,dynamic PET,"KPC mouse, pancreatic cancer model, blood","intravenous, 22.5 min, 49 days after tamoxifen",,tumour uptake,3.12 %ID/mL
